Results pooled from the literature.
Each line is one published result; not all experiments were run side by side. ± marks the error that the study gave.
Chain of UniProt Q9Y4K4 (whole entry, looked up): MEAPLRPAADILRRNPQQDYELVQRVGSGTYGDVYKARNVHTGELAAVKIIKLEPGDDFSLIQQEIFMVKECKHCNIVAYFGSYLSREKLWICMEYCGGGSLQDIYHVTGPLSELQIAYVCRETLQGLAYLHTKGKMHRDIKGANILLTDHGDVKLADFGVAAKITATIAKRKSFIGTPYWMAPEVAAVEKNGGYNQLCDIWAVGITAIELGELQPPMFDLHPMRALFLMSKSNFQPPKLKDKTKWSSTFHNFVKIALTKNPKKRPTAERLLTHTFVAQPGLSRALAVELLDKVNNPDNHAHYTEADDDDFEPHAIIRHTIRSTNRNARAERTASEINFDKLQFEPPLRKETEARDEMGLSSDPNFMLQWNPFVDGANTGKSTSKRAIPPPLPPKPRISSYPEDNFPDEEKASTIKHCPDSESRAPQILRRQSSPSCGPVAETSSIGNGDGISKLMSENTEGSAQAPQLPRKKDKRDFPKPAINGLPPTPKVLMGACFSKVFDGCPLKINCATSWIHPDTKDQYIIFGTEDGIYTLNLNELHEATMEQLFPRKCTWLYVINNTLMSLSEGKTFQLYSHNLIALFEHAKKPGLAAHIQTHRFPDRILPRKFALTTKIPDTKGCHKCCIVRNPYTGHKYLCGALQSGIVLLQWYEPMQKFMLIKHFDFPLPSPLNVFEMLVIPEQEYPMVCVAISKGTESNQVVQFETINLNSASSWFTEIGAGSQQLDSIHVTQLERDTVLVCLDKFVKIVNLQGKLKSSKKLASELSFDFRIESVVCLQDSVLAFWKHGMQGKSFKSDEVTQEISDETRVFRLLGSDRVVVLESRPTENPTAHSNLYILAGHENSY

For `CSCC[C@H](NC(=O)CNC(=O)[C@H](CCCCN)NC(=O)[C@H](CC(C)C)NC(=O)[C@@H]1CCCN1C(=O)[C@H](CO)NC(=O)[C@H](Cc1c[nH]cn1)NC(=O)[C@H](Cc1c[nH]c2ccccc12)NC(=O)[C@H](CCCNC(=N)N)NC(=O)[C@H](CC(C)C)NC(=O)[C@H](CCCNC(=N)N)NC(=O)[C@H](Cc1c[nH]c2ccccc12)NC(=O)[C@H](CS)NC(=O)CCCCCNC(=O)CN1CCN(CC(=O)O)CCN(CC(=O)O)CCN(CC(=O)O)CC1)C(=O)O` [copper-64 labelled], the tissue uptake was 2.78 ± 0.22 %ID/g (PET imaging; BALB/c nude mice, tumor; intravenous, dose not given, 9 h, Huh-7 tumour-bearing).
`CC[C@H](C)[C@H](NC(=O)[C@H](CCCCN)NC(=O)CNC(=O)[C@H](CC(C)C)NC(=O)[C@H](Cc1ccccc1)NC(=O)[C@H](CCCCN)NC(=O)[C@H](CO)NC(=O)[C@H](Cc1ccccc1)NC(=O)[C@H](Cc1c[nH]c2ccccc12)NC(=O)[C@H](CCC(N)=O)NC(=O)[C@@H](NC(=O)[C@H](Cc1ccccc1)NC(=O)CCCCCNC(=O)CN1CCN(CC(=O)O)CCN(CC(=O)O)CCN(CC(=O)O)CC1)C(C)C)C(=O)N[C@@H](CCC(=O)O)C(=O)N1CCC[C@H]1C(=O)N[C@@H](CC(=O)O)C(=O)N[C@H](C(=O)N[C@@H](CO)C(=O)N[C@@H](CCC(N)=O)C(=O)N[C@H](C(=O)N[C@@H](CCC(N)=O)C(=O)N[C@@H](CC(=O)O)C(=O)N1CCC[C@H]1C(=O)N[C@@H](CC(N)=O)C(=O)N[C@@H](CC(=O)O)C(=O)N[C@@H](CCC(N)=O)C(=O)N[C@@H](Cc1ccc(O)cc1)C(=O)N[C@@H](CCC(=O)O)C(=O)N1CCC[C@H]1C(=O)N[C@@H](Cc1ccccc1)C(=O)O)C(C)C)C(C)C` [copper-64 labelled] has a tissue uptake of 0.73 ± 0.5 %ID/g (GZMB-/- mice, CT26 tumour-bearing, pancreas; 2 h, vehicle-treated).
With `CCCC[C@H]1C(=O)N(C)[C@@H](CCCC)C(=O)N[C@@H](CCCNC(=O)CN2CCN(CC(=O)O)CCN(CC(=O)O)CCN(CC(=O)O)CC2)C(=O)N[C@H](C(=O)NCC(N)=O)CSCC(=O)N[C@@H](Cc2ccc(O)cc2)C(=O)N(C)[C@@H](C)C(=O)N[C@@H](CC(N)=O)C(=O)N2CCC[C@H]2C(=O)N[C@@H](Cc2c[nH]cn2)C(=O)N[C@@H](CC(C)C)C(=O)N(C)CC(=O)N[C@@H](Cc2c[nH]c3ccccc23)C(=O)N[C@@H](CO)C(=O)N[C@@H](Cc2c[nH]c3ccccc23)C(=O)N1C` [gallium-68 labelled] the tissue uptake was 10.1 ± 1.82 %ID/g (NOD/SCID mice, CHO-hPD-L1 xenograft, blood; 60 min, with: blocking agent 50 µg co-injected).
For `O=C1NC2(CC2)COc2ncc(F)cc2[C@H]2COCCN2c2ccn3ncc1c3n2`, the total cholesterol was 1.51 ± 0.31 mmol/L (Sprague-Dawley rat, female, serum; oral, 5 mg/kg/day, 4 weeks daily, end of recovery period).
For `CS(C)(=O)=Nc1ccc(-c2ccc(-c3nc4cc(O[C@@H]5CO[C@H]6[C@@H]5OC[C@H]6O)[nH]c4cc3F)cc2)cc1`, the inhibition was -2% (TNF-alpha human; binding; 10 µM).
The relative abundance of `COc1ccccc1-c1n[nH]c2nc(NC3CCN(C(=O)Cc4ccc(F)cc4F)CC3)ncc12` is reported as 0.71 (bead binding, competition bead pull-down, refers to: LINJ.34.0870; Leishmania donovani extract; 10 µM; relative to: vehicle).
The tissue uptake of `CC(C)C[C@@H](NC(=O)[C@@H](CCCNC(=N)N)NC(=O)[C@@H](Cc1c[nH]cn1)NC(=O)[C@@H](Cc1c[nH]c2ccccc12)NC(=O)[C@@H](Cc1c[nH]cn1)NC(=O)[C@@H](Cc1ccccc1)NC(=O)[C@H](NC(=O)[C@@H](Cc1ccc(O)cc1)NC(=O)CNC(=O)CNC(=O)CCOCCOCCOCCNC(=O)CN1CCN(CC(=O)O)CCN(CC(=O)O)CC1)[C@H](C)O)C(=O)N[C@H](CC(N)=O)C(=O)N1CCC[C@@H]1C(=O)O` [gallium-68 labelled] is reported as 0.87 ± 0.22 %ID/g (gamma counting; C57BL/6 mice, male, brain; intravenous, 1.85 MBq, 30 min).
`CC[C@H](C)[C@H](NC(=O)[C@@H](Cc1c[nH]c2ccccc12)NC(=O)[C@@H]1CCCN1C(=O)[C@H](CCCCN)NC(=O)[C@H](CCCCN)NC(=O)CCNC(=O)CCNC(=O)CN1CCN(CC(=O)O)CCN(CC(=O)O)CCN(CC(=O)O)CC1)C(=O)N[C@@H](C[Si](C)(C)C)C(=O)O` [gallium-68 labelled] gave a tissue uptake of 0.24 ± 0.12 %ID/g (nude mouse HT-29 xenograft, stomach; 90 min).
`CN(C)[C@H]1C[C@@]23CC[C@@]4(O2)C(=CC[C@]2(C)[C@@H](c5ccc6ccncc6c5)CC[C@H]24)C=C3[C@@H](O)[C@@H]1O` has an inhibition of -6.8% (Mitogen-activated protein kinase kinase kinase kinase 5 (MAP4K5, Homo sapiens, UniProt Q9Y4K4); ATP probe labelling, inhibitor, KiNativ profiling; 0.1 µM).
For `CN1Cc2cc(Cl)ccc2-n2c(nnc2C2CCN(c3cccc([18F])n3)CC2)C1`, the tissue uptake was 3.13 ± 0.61 %ID/g (C57BL/6 mouse male, muscle; intravenous, 3.7 MBq, 5 min).
`CC[C@H](C)[C@H](NC(=O)[C@H](CCCNC(=N)N)NC(=O)[C@H](CCCCN)NC(=O)[C@H](Cc1ccc(O)cc1)NC(=O)[C@H](CC(=O)O)NC(=O)[C@H](C)NC(=O)CNC(=O)CCOCCOCCOCCNC(=O)CN1CCN(CC(=O)O)CCN(CC(=O)O)CCN(CC(=O)O)CC1)C(=O)N[C@H](C(=O)N[C@H](C(=O)N[C@@H](CCCCN)C(=O)N[C@H](C(=O)N[C@@H](CC(N)=O)C(N)=O)C(C)C)C(C)C)[C@@H](C)O` [copper-64 labelled] gave a tissue uptake of 0.197 ± 0.008 %ID/g (ex vivo gamma counting; C57BL/6J male mice, B16-F10 tumour, muscle; intravenous, 1.85 MBq, 100 min).
The tissue uptake of `C[C@H](O)[C@@H](NC(=O)[C@H]1CCCN1C(=O)[C@@H](CCCCN)NC(=O)[C@@H](CO)NC(=O)[C@@H](Cc1ccc(O)cc1)NC(=O)[C@@H](CC(N)=O)NC(=O)CCOCCOCCOCCNC(=O)CN1CCN(CC(=O)O)CCN(CC(=O)O)CCN(CC(=O)O)CC1)C(=O)N[C@H](CC(=O)O)C(=O)N[C@H](CCCNC(=N)N)C(=O)N[C@H](CCC(N)=O)C(=O)N[C@H](Cc1ccc(O)cc1)C(=O)N[C@H](Cc1c[nH]cn1)C(=O)N[C@H](Cc1ccccc1)C(N)=O` [gallium-68 labelled] is reported as 0.47 ± 0.35 %ID/g (ex vivo gamma counting; BALB/c nude mouse, U-87 MG xenograft, intestine; intravenous, 1.85 MBq, 30 min).

Some of these lines once more:
For `CSCC[C@H](NC(=O)CNC(=O)[C@H](CCCCN)NC(=O)[C@H](CC(C)C)NC(=O)[C@@H]1CCCN1C(=O)[C@H](CO)NC(=O)[C@H](Cc1c[nH]cn1)NC(=O)[C@H](Cc1c[nH]c2ccccc12)NC(=O)[C@H](CCCNC(=N)N)NC(=O)[C@H](CC(C)C)NC(=O)[C@H](CCCNC(=N)N)NC(=O)[C@H](Cc1c[nH]c2ccccc12)NC(=O)[C@H](CS)NC(=O)CCCCCNC(=O)CN1CCN(CC(=O)O)CCN(CC(=O)O)CCN(CC(=O)O)CC1)C(=O)O` [copper-64 labelled], the tissue uptake was 2.78 ± 0.22 %ID/g (PET imaging; BALB/c nude mice, tumor; intravenous, dose not given, 9 h, Huh-7 tumour-bearing).
